Results gathered from unrelated publications.
Each line is one published result; not all experiments were run side by side. Numbers after ± are the reported error. Converted amounts (≈) assume the structure as drawn.

`CC1(C)NCCC[C@]2(C)[C@H]3CC=C4[C@@H]5C[C@@](C)(CO)CC[C@]5(C)CC[C@@]4(C)[C@]3(C)CC[C@@H]12` has a selectivity index of less than 2 (Human alphaherpesvirus 1; HFF, E-377; reference: CC50 over EC50).
`CC(=O)CCC1C(=O)NC(C(C)C)C(=O)NC(Cc2cccc(O)c2)C(=O)N2CCCC(N2)C(=O)OC(C(C)=CC=CC(=O)N2CCCCO2)CC=CC=CC(O)C(C)C1O` (stereo not drawn) has a maximal inhibition of greater than 95% (HIV-1; viral replication; CD4 HeLa).
The inhibition of `COc1ccc(Br)cc1/C=N/NC(=O)Cn1ccc(=O)c2ccccc21` is reported as 14.6% (Botrytis cinerea; microbial growth; 50 µg/mL).
`CC(=O)N[C@@H](CS)C(=O)N[C@@H](CO)C(=O)N[C@@H](CO)C(=O)N[C@@H](Cc1c[nH]c2ccccc12)C(=O)N[C@@H](Cc1ccccc1)C(=O)N1CCC[C@H]1C(=O)N[C@@H](Cc1ccccc1)C(=O)N[C@@H](CO)C(=O)N[C@@H](CCC(N)=O)C(=O)N[C@@H](Cc1ccc(O)cc1)C(=O)N[C@@H](CCC(N)=O)C(=O)N[C@@H](Cc1c[nH]c2ccccc12)C(=O)N[C@@H](Cc1c[nH]c2ccccc12)C(=O)N[C@@H](CCCCN)C(N)=O`: neutralisation activity “active” (HIV-1; NL4-3 (X4); concentration not given).
The antifeedant index of `CCC1c2cc(OC)c(O)cc2C(c2ccc(O)c(OC)c2)C1C` (stereo not drawn) is reported as 42.5% (Spodoptera frugiperda; larvae; 1000 µg/mL; reference: untreated control).
`CC[C@H](C)[C@H](NC(=O)[C@H](CCCNC(=N)N)NC(=O)CNC(=O)[C@H](CCCCN)NC(=O)[C@@H](NC(=O)CNC(=O)[C@H](Cc1c[nH]cn1)NC(=O)[C@@H](NC(=O)[C@H](CC(C)C)NC(=O)[C@H](CO)NC(=O)CNC(=O)[C@H](CC(C)C)NC(=O)CN)C(C)C)C(C)C)C(=O)N[C@@H](Cc1ccccc1)C(=O)N[C@@H](CC(N)=O)C(=O)N[C@@H](Cc1c[nH]cn1)C(=O)N[C@@H](CCCCN)C(=O)N[C@@H](CC(C)C)C(=O)NCC(=O)N[C@@H](CCSC)C(=O)N[C@@H](C)C(=O)N[C@@H](CO)C(=O)N[C@H](C(=O)N[C@H](C(=O)N[C@@H](CCCCN)C(=O)NCC(=O)N[C@H](C(=O)N[C@@H](CC(C)C)C(=O)N[C@@H](CCC(N)=O)C(=O)N[C@@H](CCCCN)C(=O)N[C@@H](CC(C)C)C(=O)N[C@@H](Cc1c[nH]c2ccccc12)C(=O)N[C@@H](CCC(=O)O)C(=O)O)C(C)C)[C@@H](C)CC)C(C)C`: antibacterial activity “active” (Gram-negative bacteria; MIC; concentration not given).
`Cc1nc2c(cnn2C(C)C)cc1C(=O)NCc1ccc(C(C)O)c(C)n1` (stereo not drawn) has a median survival of 31 days (Drosophila melanogaster; APP Alzheimer model adult flies; oral in food, 100 µM, dosed from embryogenesis).
The LD50 of `C/C=C/c1ccc(OC(C)=O)c(OC)c1` is reported as less than 1000 mg/kg (Spodoptera frugiperda; topical, larvae).
`CC[C@H](C)[C@H](NC(=O)[C@H](CCCCN)NC(=O)[C@H](CCCCN)NC(=O)[C@H](CC(C)C)NC(=O)[C@H](CCCCN)NC(=O)[C@H](CCC(=O)O)NC(=O)[C@H](CCCCN)NC(=O)[C@@H](NC(=O)[C@H](CCCCN)NC(=O)[C@H](CC(N)=O)NC(=O)[C@H](CCCNC(=N)N)NC(=O)[C@H](Cc1ccccc1)NC(=O)[C@H](CCCCN)NC(=O)[C@H](CCCNC(=N)N)NC(=O)[C@H](CC(C)C)NC(=O)[C@H](CCCNC(=N)N)NC(=O)[C@H](CCCCN)NC(=O)[C@H](CCCNC(=N)N)NC(=O)[C@H](CC(C)C)NC(=O)CN)[C@@H](C)CC)C(=O)NCC(=O)N[C@@H](CCC(N)=O)C(=O)N[C@@H](CCCCN)C(=O)N[C@H](C(=O)N[C@@H](CCC(N)=O)C(=O)NCC(=O)N[C@@H](Cc1ccccc1)C(=O)N[C@H](C(=O)N1CCC[C@H]1C(=O)N[C@@H](CCCCN)C(=O)N[C@@H](CC(C)C)C(=O)N[C@@H](C)C(=O)N1CCC[C@H]1C(=O)N[C@@H](CCCNC(=N)N)C(=O)N[C@H](C(=O)N[C@@H](CC(=O)O)C(=O)N[C@@H](Cc1ccc(O)cc1)C(=O)O)[C@@H](C)O)C(C)C)[C@@H](C)CC` gave a lethal concentration of 1.57 µM (Staphylococcus; inhibition zone; methicillin-resistant coagulase-negative P1369).
`C=Cc1cc(OC)c2c(c1)c(=O)oc1c2cc(OC)c2c(O)ccc([C@@H]3O[C@H](C)[C@H](O)[C@@](C)(O)[C@H]3O)c21` has a biofilm eradication of 95% (Staphylococcus aureus; crystal violet; MRSA USA300; 8 × MIC, 24 h).
The EC50 of `O=C(Cc1csc2nc(-c3ccc(Br)cc3)cn12)NN=C1CCCC1` is reported as greater than 100 µg/mL (Punta Toro virus; viral cytopathicity, microscopy; Vero).
Under “MIC geometric mean”, `CC(C)C[C@@H]1NC(=O)[C@H](CCCCN)NC(=O)[C@H](C(C)C)NC(=O)[C@H](CCCCN)NC(=O)[C@@H]2CCCN2C(=O)[C@@H](Cc2ccc(O)cc2)NC(=O)[C@H](CCCCN)NC(=O)[C@H](CCCCN)NC(=O)[C@H](C(C)C)NC(=O)[C@@H]2CCCN2C(=O)[C@@H](Cc2ccc(O)cc2)NC1=O` is recorded as 210 µg/mL (≈ 156 µM) (Gram-negative bacteria; 24 h, 7 strains).
With `CC[C@H](C)[C@H](NC(=O)[C@H](CCCCN)NC(=O)[C@H](CCCCN)NC(=O)[C@H](CC(C)C)NC(=O)[C@H](CCCCN)NC(=O)[C@H](CCC(=O)O)NC(=O)[C@H](CCCCN)NC(=O)[C@@H](NC(=O)[C@H](CCCCN)NC(=O)[C@H](CC(N)=O)NC(=O)[C@H](CCCNC(=N)N)NC(=O)[C@H](Cc1ccccc1)NC(=O)[C@H](CCCCN)NC(=O)[C@H](CCCNC(=N)N)NC(=O)[C@H](CC(C)C)NC(=O)[C@H](CCCNC(=N)N)NC(=O)[C@H](CCCCN)NC(=O)[C@H](CCCNC(=N)N)NC(=O)[C@@H](N)CC(C)C)[C@@H](C)CC)C(=O)NCC(=O)N[C@@H](CCC(N)=O)C(=O)N[C@@H](CCCCN)C(=O)N[C@H](C(=O)N[C@@H](CCC(N)=O)C(=O)NCC(=O)N[C@@H](Cc1ccccc1)C(=O)N[C@H](C(=O)N1CCC[C@H]1C(=O)N[C@@H](CCCCN)C(=O)N[C@@H](CC(C)C)C(=O)O)C(C)C)[C@@H](C)CC` the lethal concentration was 1.92 µM (Alcaligenes faecalis; inhibition zone; CGMCC 1.184).
With `CCC1(O)C([N+](=O)[O-])=NNc2nc(C(F)(F)F)nn21` (stereo not drawn) the selectivity index was 3 (coxsackievirus B3; Vero, Nancy; reference: CC50 over IC50).
`C/C=C/c1ccc(OCc2ccccc2)c(OC)c1` has an antifeedant index of 35.6% (Spodoptera frugiperda; larvae; 1000 µg/mL; reference: untreated control).
The worm number of `CC(=O)O[C@@H]1C[C@@H](C)O[C@H]2O[C@@H]3C[C@@H]4CC[C@@H]5[C@H](CC[C@]6(C)[C@@H](C7=CC(=O)OC7)CC[C@]56O)[C@@]4(C)C[C@H]3O[C@]21O` is reported as 14 ± 2.8 (Schistosoma mansoni; mouse, chronic infection; oral, 10 mg/kg single dose, total).
`CC(=O)c1c(O)c(C)c(O)c2c1OC1=CC(=O)/C3=C(/C)N[C@H](C(=O)O)CC1=CC=C(O)C=C[C@@]2(C)C3=O` has an MIC99 of 1.54 µM (≈ 0.782 µg/mL) (Candida tropicalis; broth microdilution; ATCC 750 fluconazole and amphotericin B resistant; 24 and 48 h).
The infection of `COc1ccc(-n2c(SCCCN3CCOCC3)nnc2[C@H](Cc2ccccc2)NC(=O)Cc2c(C)[nH]c3ccccc23)cc1` is reported as 11.2 ± 8.19% (HIV-1 NL4-3; single-round infection; 5 µM, late stage; reference: untreated).

Repeated from above:
`CC(=O)c1c(O)c(C)c(O)c2c1OC1=CC(=O)/C3=C(/C)N[C@H](C(=O)O)CC1=CC=C(O)C=C[C@@]2(C)C3=O` has an MIC99 of 1.54 µM (≈ 0.782 µg/mL) (Candida tropicalis; broth microdilution; ATCC 750 fluconazole and amphotericin B resistant; 24 and 48 h).
`CC(=O)CCC1C(=O)NC(C(C)C)C(=O)NC(Cc2cccc(O)c2)C(=O)N2CCCC(N2)C(=O)OC(C(C)=CC=CC(=O)N2CCCCO2)CC=CC=CC(O)C(C)C1O` (stereo not drawn) has a maximal inhibition of greater than 95% (HIV-1; viral replication; CD4 HeLa).
